# Experimental data gathered from unrelated publications.
# Each line is one published result; not all experiments were run side by side. “And” joins repeats or separate records; there may be more than shown. Numbers after ± are the reported error.
Substance,target or system,assay,system,conditions,quantity,value
Nc1nc2c(ncn2COCCO)c(=O)[nH]1,human alphaherpesvirus 1,,,,IC50,0.27 µM
meglumine antimoniate,Leishmania infantum,,,intracellular amastigotes,IC50,24.2 ± 2.6 µM
Cn1c2c(c(=O)c3ccccc31)CC(O)C(C)(C)O2 (stereo not drawn),human rhinovirus 2,cytopathic effect,HeLa,72 h,IC50,83 ± 43.3 µM
O=Cc1cn(Cc2cccc(Cl)c2)c2ccc([N+](=O)[O-])cc12,Trypanosoma congolense,,"trypomastigotes, IL3000",,IC50,> 79 µM
C[C@H]1N[C@@H](CCCCCCCCCCC2=C[C@@H](CCCCCCCCCC[C@H]3CC[C@@H](O)[C@@H](C)N3)[C@@H]3CCCN3C2)CC[C@H]1O,Leishmania donovani,"parasite growth, resazurin",,"72 h, promastigote",IC50,0.3 µg/mL
O=Cc1cn(Cc2ccccc2)c2ccc([N+](=O)[O-])cc12,Leishmania major,"parasite growth, resazurin",THP-1,"72 h, intracellular, amastigote",IC50,> 10 µM
CCC(=O)Nc1cc(Nc2cc(NC3CC3)n3ncc(C#N)c3n2)ccc1N(C)CCN,murine hepatitis virus,"viral replication, nanoluciferase reporter",DBT,10 h,IC50,0.1 µM
O=C1C(O)=C([C@H]2CC[C@H](c3ccc(Cl)cc3)CC2)C(=O)c2ccccc21,Toxoplasma gondii,,tachyzoites,,IC50,0.032 ± 0.019 µM
OCC1CC(n2cnc3c(SCc4ccc(F)cc4)ncnc32)C(O)C1O (stereo not drawn),Toxoplasma gondii,"parasite growth, radiolabelled uracil incorporation","RH wild type, tissue culture",,IC50,23.2 ± 1.3 µM
CN[C@@](C)(C[18F])C(=O)O,,,"SCID mouse U87 xenograft, heart","120 min, post injection",tissue uptake,3.9 ± 0.6 %ID/g
CCCCCCCCCCCCCC#CC(=O)O,Trypanosoma brucei rhodesiense,,STIB900 bloodstream form,72 h,IC50,21.1 µg/mL
O=C(O)C(=O)CBr,Leishmania infantum,intracellular amastigotes,U-937 macrophages,48 h,IC50,24.9 ± 2.3e-05 µM
CCCC[C@H]1C(=O)O[C@H](C)[C@H](NC(=O)c2cccc(NC=O)c2O)C(=O)O[C@@H](C)[C@@H]1OC(=O)CC(C)C,Wickerhamomyces anomalus,"O2 uptake, inhibitor",mitochondria,together with: malate and pyruvate 15 mM,IC50,0.035 µM
O=Cc1cn(Cc2ccc(F)cc2)c2ccc([N+](=O)[O-])cc12,Leishmania major,"parasite growth, resazurin",THP-1,"24 h, intracellular, amastigote",IC50,13.1 µM
CC(C)c1cc2c(cc1O)[C@@]1(C)CCCC(C)(C)[C@@H]1CC2,Leishmania amazonensis,parasite growth,mouse Peritoneal macrophage,"72 h, intracellular, amastigote",IC50,4.4 µg/mL
CCC(=O)Nc1cc(Nc2cc(NC3CC3)n3ncc(C#N)c3n2)ccc1N(C)CCN1CCCC1,murine hepatitis virus,"viral replication, nanoluciferase reporter",DBT,10 h,IC50,0.794 µM
CSCC[C@H](NC(=O)[C@H](Cc1ccccc1)NC(=O)[C@H](Cc1c[nH]c2ccccc12)NC(=O)[C@H](CCC(=O)O)NC(=O)[C@H](CCCNC(=N)N)NC(=O)[C@H](Cc1c[nH]cn1)NC(=O)[C@@H](NC(=O)[C@H](CC(C)C)NC(=O)[C@H](Cc1ccccc1)NC(=O)[C@@H](N)[C@@H](C)O)C(C)C)C(=O)N[C@@H](CC(=O)O)C(=O)N[C@@H](CC(C)C)C(=O)N[C@@H](CC(N)=O)C(=O)N[C@@H](CC(C)C)C(=O)N1CCC[C@H]1C(=O)N[C@@H](Cc1c[nH]c2ccccc12)C(=O)N[C@@H](CO)C(=O)N[C@@H](CO)C(=O)N[C@@H](C)C(=O)NCC(=O)N[C@@H](CO)C(=O)N[C@H](C(=O)N[C@H](C(=O)N[C@@H](Cc1c[nH]c2ccccc12)C(=O)N[C@@H](CCCNC(=N)N)C(=O)O)C(C)C)[C@@H](C)O,West Nile virus,"viral replication, plaque reduction","LLC-MK2, Egypt 101",,IC50,~10 µM
COCC(=O)[C@H]1C(C)(C)CCC[C@]1(C)C1=C(O)C(=O)C(C(C)C)=CC1=O,Leishmania amazonensis,parasite growth,mouse Peritoneal macrophage,"72 h, intracellular, amastigote",IC50,0.52 µg/mL
Cc1ccc(Cn2cc(C=O)c3cc([N+](=O)[O-])ccc32)cc1,Trypanosoma congolense,,"trypomastigotes, IL3000",,IC50,> 85 µM
CN1CCCN2CCN(CCCN(Cc3ccccc3)CC2)CC1,Leishmania donovani,"parasite growth, resazurin",,"72 h, promastigote",IC50,> 20 µM
C=C(C)[C@H]1Cc2c(ccc3c2O[C@@H]2COc4cc(OC)c(OC)cc4[C@@H]2C3=O)O1,Plasmodium yoelii,oxygen consumption,"17XL, infected red blood cells",,IC50,> 2.5 µM
CC(=O)Nc1ccc2ccn(-c3cc(Nc4ccccc4)n4ncc(C#N)c4n3)c2c1,murine hepatitis virus,"viral replication, nanoluciferase reporter",DBT,10 h,IC50,1.58 µM
OCC1CC(n2cnc3c(SCc4ccccc4F)ncnc32)C(O)C1O (stereo not drawn),Toxoplasma gondii,"parasite growth, radiolabelled uracil incorporation","RH wild type, tissue culture",,IC50,38.9 ± 15.6 µM
CCC(=O)Nc1cc(Nc2cc(NC3CC3)n3ncc(C#N)c3n2)ccc1N1CCCC(NC)C1 (stereo not drawn),murine hepatitis virus,"viral replication, nanoluciferase reporter",DBT,10 h,IC50,0.251 µM
C/C=C1\CN2CCC34CC5C6CC7c8c(c9ccccc9n8C)CC(C6COC5(C)OC35C2CC1C(C(=O)OC)N5c1ccccc14)N7C (stereo not drawn),Leishmania mexicana,"parasite growth, flow cytometry",,promastigote,IC50,> 200 µM
N=C(N)N[C@H]1Cc2ccccc2[C@@H]1NC(=O)C(=O)Nc1ccc(Cl)c(F)c1,HIV-1 YU2,viral infection,Cf2Th-CD4/CCR5,,IC50,21.3 µM
C/C(=C\Cc1c(O)c(Cl)c(C)c(C=O)c1O)CC/C=C(\C)[C@@H]1CC(=O)C(C)(C)O1,Wickerhamomyces anomalus,"O2 uptake, inhibitor",mitochondria,together with: succinate 15 mM,IC50,14.5 µM
N#CSCCOc1cccc(Oc2ccccc2Cl)c1,Toxoplasma gondii,growth,tachyzoites,,IC50,2.1 µM
CO/C(=C/C(N)=O)[C@H](C)[C@H](/C=C/c1csc(-c2csc([C@@H](C)/C=C/C=C/C(C)C)n2)n1)OC,Wickerhamomyces anomalus,"O2 uptake, inhibitor",mitochondria,together with: malate and pyruvate 15 mM,IC50,0.085 µM
N=C(N)c1ccc(OCCCCCOc2ccc(C(=N)N)cc2)cc1,human papillomavirus 16,"pseudovirus infection, inhibitor",293FT,pseudovirus,IC50,≤ 0.002 µM
COC(=O)CC(O)c1cc(OC)c(O)c(OC)c1 (stereo not drawn),human rhinovirus 2,cytopathic effect,HeLa,72 h,IC50,inactive
N#Cc1ccc(CSc2ncnc3c2ncn3C2CC(CO)C(O)C2O)cc1 (stereo not drawn),Toxoplasma gondii,"parasite growth, radiolabelled uracil incorporation","RH wild type, tissue culture",,IC50,49 ± 10.3 µM
CCC(=O)Nc1cc(Nc2cc(NC3CC3)n3ncc(C#N)c3n2)ccc1N1CCNCC1,murine hepatitis virus,"viral replication, nanoluciferase reporter",DBT,10 h,IC50,2 µM
CC[C@H](C)[C@H](NC(=O)[C@H](CC(C)C)NC(=O)[C@H](Cc1c[nH]cn1)NC(=O)[C@H](Cc1c[nH]cn1)NC(=O)[C@@H](NC(=O)[C@H](Cc1ccccc1)NC(=O)[C@H](Cc1c[nH]cn1)NC(=O)[C@H](Cc1c[nH]c2ccccc12)NC(=O)[C@@H](NC(=O)[C@H](Cc1c[nH]cn1)NC(=O)[C@H](Cc1c[nH]cn1)NC(=O)[C@H](Cc1c[nH]c2ccccc12)NC(=O)[C@@H](N)CC(C)C)[C@@H](C)CC)C(C)C)C(N)=O,Herpes simplex virus 1,"viral attachment, plaque reduction","Vero, F","1 h, 4 °C",IC50,0.67 µg/mL
CC[C@H](C)[C@H](NC(=O)[C@H](CC(C)C)NC(=O)CNC(=O)[C@@H]1CCCN1C(=O)[C@H](CC(C)C)NC(=O)[C@H](C)NC(=O)[C@H](CCCCN)NC(=O)CNC(=O)[C@H](CC(C)C)NC(=O)[C@H](CCSC)NC(=O)[C@H](CCCCN)NC(=O)[C@H](C)NC(=O)[C@H](C)NC(=O)[C@H](C)NC(=O)CNC(=O)[C@H](Cc1c[nH]c2ccccc12)NC(=O)[C@@H](N)Cc1ccccc1)C(=O)N[C@@H](CO)C(=O)N[C@@H](CCSC)C(=O)N[C@@H](Cc1ccccc1)C(=O)N[C@@H](CCC(N)=O)C(=O)N[C@@H](CCCCN)C(=O)N[C@@H](CC(N)=O)C(=O)O,Haemonchus contortus,larval development,Kirby isolate,"6 days, 26 °C",IC50,< 6 µM and 5.1 µM
O=C(O)c1ccc2c(c1)nc(Nc1cccc(Cl)c1)c1ccncc12,murine hepatitis virus,"viral replication, nanoluciferase reporter",DBT,10 h,IC50,0.631 µM
